Experimental data of several laboratories.

Substance = KEGQINDMILSLLSK; tested on = human CD4 T cells; test = AIM; test system = peptide; endpoint = responding donors; result = 33%
Substance = Nc1ncnc2c([C@@H]3N[C@H](CO)[C@@H](O)[C@H]3O)c[nH]c12; tested on = Marburg virus; test = viral replication, antibody staining; test system = HeLa, Musoke; conditions = 0.4 µM, 12 h; endpoint = infected cells; result = 10.5%
Substance = CC[C@H](C)[C@H](NC(=O)[C@H](CC(C)C)NC(=O)[C@H](Cc1c[nH]c2ccccc12)NC(=O)[C@H](CCC(N)=O)NC(=O)[C@@H](NC(=O)[C@H](Cc1ccccc1)NC(=O)[C@H](C)NC(=O)[C@H](CCCCNC(=O)COCCOCCNC(=O)COCCOCCNC(=O)CC[C@H](NC(=O)CCCCCCCCCCCCCCCCCCC(=O)O)C(=O)O)NC(=O)[C@H](CCC(N)=O)NC(=O)[C@H](C)NC(=O)[C@@H](NC(=O)[C@H](CCCCN)NC(=O)[C@H](CC(=O)O)NC(=O)[C@H](CC(C)C)NC(=O)C(C)(C)NC(=O)[C@@H](NC(=O)[C@H](CO)NC(=O)[C@H](Cc1ccc(O)cc1)NC(=O)[C@H](CC(=O)O)NC(=O)[C@H](CO)NC(=O)[C@@H](NC(=O)[C@H](Cc1ccccc1)NC(=O)[C@@H](NC(=O)CNC(=O)[C@H](CCC(=O)O)NC(=O)C(C)(C)NC(=O)[C@@H](N)Cc1ccc(O)cc1)[C@@H](C)O)[C@@H](C)O)[C@@H](C)CC)[C@@H](C)CC)C(C)C)C(=O)N[C@@H](C)C(=O)NCC(=O)NCC(=O)N1CCC[C@H]1C(=O)N[C@@H](CO)C(=O)N[C@@H](CO)C(=O)NCC(=O)N[C@@H](C)C(=O)N1CCC[C@H]1C(=O)N1CCC[C@H]1C(=O)N1CCC[C@H]1C(=O)N[C@@H](CO)C(N)=O; test system = healthy human; conditions = 0.5 mg, single ascending dose; endpoint = injection site reaction; result = 33.3%
Substance = GGDGKMKDLSPRWYF; tested on = human CD4 T cells; test = AIM; test system = peptide; endpoint = responding donors; result = 15%
Substance = NC1=N[C@@](c2cccc(-c3cncnc3)c2)(c2ccnc(C(F)F)c2)c2cccc(F)c21; tested on = Replicase polyprotein 1ab, main protease (rep, Severe acute respiratory syndrome coronavirus 2, UniProt P0DTD1); test = reporter gene (mKate2), inhibitor; conditions = 20 µM; endpoint = inhibition; result = 0.303%

Some of these lines once more:
Substance = CC[C@H](C)[C@H](NC(=O)[C@H](CC(C)C)NC(=O)[C@H](Cc1c[nH]c2ccccc12)NC(=O)[C@H](CCC(N)=O)NC(=O)[C@@H](NC(=O)[C@H](Cc1ccccc1)NC(=O)[C@H](C)NC(=O)[C@H](CCCCNC(=O)COCCOCCNC(=O)COCCOCCNC(=O)CC[C@H](NC(=O)CCCCCCCCCCCCCCCCCCC(=O)O)C(=O)O)NC(=O)[C@H](CCC(N)=O)NC(=O)[C@H](C)NC(=O)[C@@H](NC(=O)[C@H](CCCCN)NC(=O)[C@H](CC(=O)O)NC(=O)[C@H](CC(C)C)NC(=O)C(C)(C)NC(=O)[C@@H](NC(=O)[C@H](CO)NC(=O)[C@H](Cc1ccc(O)cc1)NC(=O)[C@H](CC(=O)O)NC(=O)[C@H](CO)NC(=O)[C@@H](NC(=O)[C@H](Cc1ccccc1)NC(=O)[C@@H](NC(=O)CNC(=O)[C@H](CCC(=O)O)NC(=O)C(C)(C)NC(=O)[C@@H](N)Cc1ccc(O)cc1)[C@@H](C)O)[C@@H](C)O)[C@@H](C)CC)[C@@H](C)CC)C(C)C)C(=O)N[C@@H](C)C(=O)NCC(=O)NCC(=O)N1CCC[C@H]1C(=O)N[C@@H](CO)C(=O)N[C@@H](CO)C(=O)NCC(=O)N[C@@H](C)C(=O)N1CCC[C@H]1C(=O)N1CCC[C@H]1C(=O)N1CCC[C@H]1C(=O)N[C@@H](CO)C(N)=O; test system = healthy human; conditions = 0.5 mg, single ascending dose; endpoint = injection site reaction; result = 33.3%
